Published values pooled from the literature.
± gives the spread as reported.
B1: FBLN5 42-167 (Homo sapiens, UniProt Q9UBX5); chain DIDECRTIPEACRGDMMCVNQNGGYLCIPRTNPVYRGPYSNPYSTPYSGPYPAAAPPLSAPNYPTISRPLICRFGYQMDESNQCVDVDECATDSHQCNPTQICINTEGGYTCSCTDGYWLLEGQCL
B2: CyaY 1-106 (Escherichia coli, UniProt P27838); chain MNDSEFHRLADQLWLTIEERLDDWDGDSDIDCEINGGVLTITFENGSKIIINRQEPLHQVWLATKQGGYHFDLKGDEWICDRSGETFWDLLEQAATQQAGETVSFR
B3: bfd 1-73 C43S (Pseudomonas aeruginosa, UniProt Q9HY80); chain MYVCLCQGVTDNQIRDAIYEGCCSYREVREATGVGTQCGKCASLAKQVVRETLNDLQSAQPVPAFGTTAFVAA
B4: LY96 LOS-bound (Homo sapiens, UniProt Q9Y6Y9); sequence looked up; chain QKQYWVCNSSDASISYTYCDKMQYPISINVNPCIELKRSKGLLHIFYIPRRDLKQLYFNLYITVNTMNLPKRKEVICRGSDDDYSFCRALKGETVNTTISFSFKGIKFSKGKYKCVVEAISGSPEEMLFCLEFVILHQPNSN
Sequence of UniProt O00206 (whole entry, looked up): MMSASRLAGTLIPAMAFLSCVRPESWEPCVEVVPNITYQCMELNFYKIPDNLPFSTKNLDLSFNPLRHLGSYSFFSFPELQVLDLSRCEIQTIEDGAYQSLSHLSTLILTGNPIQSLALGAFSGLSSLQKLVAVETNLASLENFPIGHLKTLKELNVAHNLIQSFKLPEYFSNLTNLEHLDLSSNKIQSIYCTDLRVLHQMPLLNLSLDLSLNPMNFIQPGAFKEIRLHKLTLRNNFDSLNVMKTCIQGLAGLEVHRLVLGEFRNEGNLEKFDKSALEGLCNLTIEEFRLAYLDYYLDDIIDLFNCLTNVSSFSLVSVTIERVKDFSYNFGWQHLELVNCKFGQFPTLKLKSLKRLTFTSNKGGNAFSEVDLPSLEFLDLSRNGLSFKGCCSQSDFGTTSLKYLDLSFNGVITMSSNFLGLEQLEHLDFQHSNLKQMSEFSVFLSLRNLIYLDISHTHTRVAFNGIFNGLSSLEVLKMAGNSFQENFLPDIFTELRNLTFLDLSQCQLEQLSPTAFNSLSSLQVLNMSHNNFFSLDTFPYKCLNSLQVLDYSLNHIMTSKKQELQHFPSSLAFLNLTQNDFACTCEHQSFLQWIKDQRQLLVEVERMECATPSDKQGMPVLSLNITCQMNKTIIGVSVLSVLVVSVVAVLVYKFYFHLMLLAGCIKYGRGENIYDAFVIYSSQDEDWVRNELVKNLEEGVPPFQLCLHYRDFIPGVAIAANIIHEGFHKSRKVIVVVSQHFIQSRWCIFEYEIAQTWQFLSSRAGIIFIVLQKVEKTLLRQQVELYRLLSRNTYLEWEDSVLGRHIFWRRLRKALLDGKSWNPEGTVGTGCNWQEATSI
Sequence of UniProt P24807 (whole entry, looked up): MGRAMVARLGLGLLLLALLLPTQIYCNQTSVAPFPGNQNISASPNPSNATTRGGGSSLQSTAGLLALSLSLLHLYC
Sequence of UniProt P35555 (whole entry, looked up): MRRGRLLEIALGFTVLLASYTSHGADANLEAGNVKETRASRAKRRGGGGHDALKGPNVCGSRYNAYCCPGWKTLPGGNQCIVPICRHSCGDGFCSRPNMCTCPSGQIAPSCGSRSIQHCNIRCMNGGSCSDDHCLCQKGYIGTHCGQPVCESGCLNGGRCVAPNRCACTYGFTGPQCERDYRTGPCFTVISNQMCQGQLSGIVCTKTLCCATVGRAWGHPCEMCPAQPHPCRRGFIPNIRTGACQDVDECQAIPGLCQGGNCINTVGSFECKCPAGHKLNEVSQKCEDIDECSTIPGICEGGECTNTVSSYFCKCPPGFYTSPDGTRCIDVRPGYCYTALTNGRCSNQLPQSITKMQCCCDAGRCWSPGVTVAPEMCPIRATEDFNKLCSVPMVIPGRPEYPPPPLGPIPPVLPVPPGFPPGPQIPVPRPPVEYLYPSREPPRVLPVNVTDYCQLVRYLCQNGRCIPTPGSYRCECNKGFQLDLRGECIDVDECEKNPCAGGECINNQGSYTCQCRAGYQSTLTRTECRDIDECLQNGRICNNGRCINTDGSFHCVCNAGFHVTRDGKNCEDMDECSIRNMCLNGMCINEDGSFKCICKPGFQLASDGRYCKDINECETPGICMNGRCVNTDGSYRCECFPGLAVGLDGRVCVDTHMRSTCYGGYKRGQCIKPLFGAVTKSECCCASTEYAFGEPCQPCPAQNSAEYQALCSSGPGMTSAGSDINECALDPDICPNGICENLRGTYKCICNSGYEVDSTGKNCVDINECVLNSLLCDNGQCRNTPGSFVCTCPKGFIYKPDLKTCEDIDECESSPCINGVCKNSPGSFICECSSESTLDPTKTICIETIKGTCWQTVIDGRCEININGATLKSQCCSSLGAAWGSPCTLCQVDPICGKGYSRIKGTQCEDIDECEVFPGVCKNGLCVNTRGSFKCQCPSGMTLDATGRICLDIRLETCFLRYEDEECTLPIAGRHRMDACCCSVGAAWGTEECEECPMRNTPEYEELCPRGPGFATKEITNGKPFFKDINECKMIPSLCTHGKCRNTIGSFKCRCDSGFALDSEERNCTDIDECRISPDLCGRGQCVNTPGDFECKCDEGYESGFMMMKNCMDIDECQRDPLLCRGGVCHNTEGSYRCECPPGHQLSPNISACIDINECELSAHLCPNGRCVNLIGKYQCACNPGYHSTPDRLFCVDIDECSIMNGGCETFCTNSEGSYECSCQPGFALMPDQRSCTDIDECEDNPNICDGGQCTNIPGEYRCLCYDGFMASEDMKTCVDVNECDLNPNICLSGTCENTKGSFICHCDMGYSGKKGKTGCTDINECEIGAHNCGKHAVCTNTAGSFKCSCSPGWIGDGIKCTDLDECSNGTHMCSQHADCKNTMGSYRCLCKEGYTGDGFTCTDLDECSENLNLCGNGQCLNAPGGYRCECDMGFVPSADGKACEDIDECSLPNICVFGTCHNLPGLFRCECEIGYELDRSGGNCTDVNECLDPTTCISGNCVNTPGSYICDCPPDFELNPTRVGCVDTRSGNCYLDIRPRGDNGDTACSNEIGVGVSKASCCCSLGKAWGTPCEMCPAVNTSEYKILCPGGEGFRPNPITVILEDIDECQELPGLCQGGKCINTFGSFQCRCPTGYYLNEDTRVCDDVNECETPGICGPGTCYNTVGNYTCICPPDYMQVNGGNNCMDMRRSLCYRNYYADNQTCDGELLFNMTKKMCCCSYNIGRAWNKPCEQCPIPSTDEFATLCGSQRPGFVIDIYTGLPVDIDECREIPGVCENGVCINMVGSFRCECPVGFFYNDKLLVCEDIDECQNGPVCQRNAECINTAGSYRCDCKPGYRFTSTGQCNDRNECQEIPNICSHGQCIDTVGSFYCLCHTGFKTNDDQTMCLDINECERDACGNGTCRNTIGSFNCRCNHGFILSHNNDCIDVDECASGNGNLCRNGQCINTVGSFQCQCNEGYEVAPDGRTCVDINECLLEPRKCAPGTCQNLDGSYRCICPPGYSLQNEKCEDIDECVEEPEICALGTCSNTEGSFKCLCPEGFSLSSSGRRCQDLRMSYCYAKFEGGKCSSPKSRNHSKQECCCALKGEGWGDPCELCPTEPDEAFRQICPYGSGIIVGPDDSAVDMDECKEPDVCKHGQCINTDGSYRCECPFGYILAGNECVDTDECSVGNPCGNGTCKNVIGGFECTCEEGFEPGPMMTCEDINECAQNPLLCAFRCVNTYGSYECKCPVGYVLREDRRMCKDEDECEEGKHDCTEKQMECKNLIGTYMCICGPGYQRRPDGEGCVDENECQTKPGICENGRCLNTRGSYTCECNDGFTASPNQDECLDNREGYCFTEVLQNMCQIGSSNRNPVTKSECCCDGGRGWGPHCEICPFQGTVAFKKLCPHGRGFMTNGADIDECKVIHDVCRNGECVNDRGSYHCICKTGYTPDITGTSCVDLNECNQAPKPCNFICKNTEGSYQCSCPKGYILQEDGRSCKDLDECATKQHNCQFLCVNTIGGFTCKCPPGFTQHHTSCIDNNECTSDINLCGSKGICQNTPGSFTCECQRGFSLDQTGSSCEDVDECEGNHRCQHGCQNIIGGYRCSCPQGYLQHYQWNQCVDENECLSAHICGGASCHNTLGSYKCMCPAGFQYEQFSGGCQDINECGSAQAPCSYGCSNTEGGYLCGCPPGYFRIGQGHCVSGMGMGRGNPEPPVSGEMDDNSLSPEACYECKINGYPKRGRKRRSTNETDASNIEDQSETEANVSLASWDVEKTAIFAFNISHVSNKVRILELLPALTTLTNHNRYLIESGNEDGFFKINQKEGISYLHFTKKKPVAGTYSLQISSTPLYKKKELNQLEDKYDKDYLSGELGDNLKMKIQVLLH
Sequence of UniProt P26151 (whole entry, looked up): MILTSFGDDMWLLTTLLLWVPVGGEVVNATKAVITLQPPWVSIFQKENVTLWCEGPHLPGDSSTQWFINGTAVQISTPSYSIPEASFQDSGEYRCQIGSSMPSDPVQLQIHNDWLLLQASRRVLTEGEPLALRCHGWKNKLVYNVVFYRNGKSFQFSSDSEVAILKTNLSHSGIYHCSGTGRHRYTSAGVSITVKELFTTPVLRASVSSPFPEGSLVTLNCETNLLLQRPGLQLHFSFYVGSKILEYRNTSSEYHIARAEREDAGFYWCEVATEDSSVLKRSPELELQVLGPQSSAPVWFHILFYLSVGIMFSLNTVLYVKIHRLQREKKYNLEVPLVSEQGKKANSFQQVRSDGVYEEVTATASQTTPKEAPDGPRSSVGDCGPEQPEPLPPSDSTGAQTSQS

Molecule = B1 (FBLN5 42-167); partner = FBN1 31-489 (Homo sapiens, UniProt P35555); test = ELISA; Kd = 344 ± 54 nM
Molecule = B2 (CyaY 1-106); partner = IscS 1-404 (Escherichia coli, UniProt P0A6B7); test = ITC; conditions = pH 8.0, 25 °C, NaCl 150 mM; Kd = 18500 ± 2400 nM
Molecule = B3 (bfd 1-73 C43S); partner = bfrB 1-158 extra Met0 (Pseudomonas aeruginosa, UniProt Q9HY79); test = SPR; conditions = pH 7.4, 22 °C; Kd = 3800 ± 200 nM
Molecule = B4 (LY96 LOS-bound); partner = TLR4 (Homo sapiens, UniProt O00206); test = radioligand binding; test system = HEK293 expressing TLR4; conditions = 30 min, pH 7.4, 37 °C, Scatchard analysis, in cells; Kd = 0.734 ± 0.04 nM
Molecule = Fcgr1 (Mus musculus, UniProt P26151); partner = Ighg3 Fc domain, C-terminal cysteine (Mus musculus); test = SPR; Kd = 405 ± 34 nM
Molecule = CD24/Siglec-10 blocking peptide, D-amino acids; partner = Cd24a (Mus musculus, UniProt P24807); test = MST; Kd = 220 nM
Molecule = Pebp1 fragment (Rattus norvegicus) (sequence not shown); partner = PRKACA fragment (Homo sapiens); test = BLI; conditions = pH 6.5, 20 °C, together with: apo; Kd = 36400 ± 700 nM
Molecule = ParE2 (Vibrio cholerae); partner = gyrA 2-523 (Escherichia coli, UniProt P0AES4); test = SPR; conditions = apparent, heterogeneous ligand model; Kd = 10 nM

For quick reference, copied from above:
Molecule = B3 (bfd 1-73 C43S); partner = bfrB 1-158 extra Met0 (Pseudomonas aeruginosa, UniProt Q9HY79); test = SPR; conditions = pH 7.4, 22 °C; Kd = 3800 ± 200 nM
